Measured values of several laboratories.
A part holds a random share of what one study measured.
UniProt P10721, sequence (whole entry, unmodified, looked up): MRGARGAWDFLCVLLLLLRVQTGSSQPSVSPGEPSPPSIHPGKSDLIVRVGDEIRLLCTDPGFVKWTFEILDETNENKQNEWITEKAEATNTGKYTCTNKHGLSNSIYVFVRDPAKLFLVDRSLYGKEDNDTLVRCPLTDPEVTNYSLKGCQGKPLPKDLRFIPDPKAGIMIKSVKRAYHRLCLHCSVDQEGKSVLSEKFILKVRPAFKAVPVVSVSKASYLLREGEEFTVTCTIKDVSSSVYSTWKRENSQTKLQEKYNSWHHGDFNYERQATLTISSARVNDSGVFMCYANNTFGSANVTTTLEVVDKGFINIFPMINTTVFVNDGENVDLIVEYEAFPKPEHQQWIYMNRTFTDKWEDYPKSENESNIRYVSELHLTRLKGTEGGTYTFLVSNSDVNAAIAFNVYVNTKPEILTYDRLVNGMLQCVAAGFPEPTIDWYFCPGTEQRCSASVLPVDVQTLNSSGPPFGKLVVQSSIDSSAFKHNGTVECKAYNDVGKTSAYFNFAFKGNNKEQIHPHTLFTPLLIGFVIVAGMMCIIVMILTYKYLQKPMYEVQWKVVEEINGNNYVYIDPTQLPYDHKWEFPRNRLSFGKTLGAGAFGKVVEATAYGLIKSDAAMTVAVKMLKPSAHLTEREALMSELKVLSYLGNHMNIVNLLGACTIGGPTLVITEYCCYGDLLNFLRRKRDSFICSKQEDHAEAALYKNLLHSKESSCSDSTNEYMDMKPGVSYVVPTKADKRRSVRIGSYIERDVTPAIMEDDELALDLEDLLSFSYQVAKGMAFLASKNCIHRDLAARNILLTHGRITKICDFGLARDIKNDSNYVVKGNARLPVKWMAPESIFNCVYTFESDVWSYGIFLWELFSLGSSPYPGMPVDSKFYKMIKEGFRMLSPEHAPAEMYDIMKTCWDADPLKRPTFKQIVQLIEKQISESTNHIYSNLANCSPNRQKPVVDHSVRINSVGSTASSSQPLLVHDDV
UniProt Q8NG66, sequence (whole entry, looked up): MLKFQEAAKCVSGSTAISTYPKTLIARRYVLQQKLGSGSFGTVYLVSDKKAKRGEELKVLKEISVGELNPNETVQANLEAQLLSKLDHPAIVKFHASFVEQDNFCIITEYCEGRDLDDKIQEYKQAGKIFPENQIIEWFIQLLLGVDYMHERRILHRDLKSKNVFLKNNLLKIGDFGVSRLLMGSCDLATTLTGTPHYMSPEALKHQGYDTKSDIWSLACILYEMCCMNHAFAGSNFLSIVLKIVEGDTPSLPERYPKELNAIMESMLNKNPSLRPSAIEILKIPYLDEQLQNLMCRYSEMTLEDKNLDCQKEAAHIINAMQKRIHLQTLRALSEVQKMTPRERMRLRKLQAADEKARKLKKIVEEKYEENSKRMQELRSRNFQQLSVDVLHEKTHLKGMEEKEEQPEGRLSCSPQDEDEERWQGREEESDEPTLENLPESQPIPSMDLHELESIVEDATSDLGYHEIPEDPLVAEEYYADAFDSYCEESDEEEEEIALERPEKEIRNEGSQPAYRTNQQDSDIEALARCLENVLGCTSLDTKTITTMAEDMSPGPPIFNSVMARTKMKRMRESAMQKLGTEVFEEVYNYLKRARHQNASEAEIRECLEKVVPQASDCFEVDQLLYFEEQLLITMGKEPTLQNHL
UniProt Q02779, sequence (whole entry, looked up): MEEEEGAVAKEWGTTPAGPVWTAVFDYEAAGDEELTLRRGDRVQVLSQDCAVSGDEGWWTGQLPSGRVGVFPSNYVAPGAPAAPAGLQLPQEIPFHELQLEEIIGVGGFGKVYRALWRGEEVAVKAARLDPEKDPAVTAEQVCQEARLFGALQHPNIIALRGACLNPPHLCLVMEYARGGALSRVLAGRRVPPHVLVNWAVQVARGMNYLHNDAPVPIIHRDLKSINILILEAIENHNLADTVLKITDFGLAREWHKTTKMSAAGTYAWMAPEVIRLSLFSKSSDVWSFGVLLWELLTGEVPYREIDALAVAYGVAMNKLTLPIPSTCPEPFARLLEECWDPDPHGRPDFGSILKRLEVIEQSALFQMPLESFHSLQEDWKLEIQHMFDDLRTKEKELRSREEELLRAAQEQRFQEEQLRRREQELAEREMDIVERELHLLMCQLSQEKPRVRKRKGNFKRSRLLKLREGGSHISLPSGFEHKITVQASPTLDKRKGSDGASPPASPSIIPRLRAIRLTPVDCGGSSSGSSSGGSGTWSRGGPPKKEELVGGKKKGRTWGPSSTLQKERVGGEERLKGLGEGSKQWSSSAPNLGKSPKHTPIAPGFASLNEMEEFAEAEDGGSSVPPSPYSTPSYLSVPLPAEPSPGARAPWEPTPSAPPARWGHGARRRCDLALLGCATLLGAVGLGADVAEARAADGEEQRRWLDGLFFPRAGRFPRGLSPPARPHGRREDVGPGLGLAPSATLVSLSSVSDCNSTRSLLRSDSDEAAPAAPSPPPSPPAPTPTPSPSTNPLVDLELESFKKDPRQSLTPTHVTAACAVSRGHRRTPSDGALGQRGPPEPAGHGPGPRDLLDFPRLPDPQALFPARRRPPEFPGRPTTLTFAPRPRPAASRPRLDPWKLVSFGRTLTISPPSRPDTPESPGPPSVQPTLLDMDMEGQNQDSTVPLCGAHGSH
UniProt Q9H3Y6, sequence (whole entry, looked up): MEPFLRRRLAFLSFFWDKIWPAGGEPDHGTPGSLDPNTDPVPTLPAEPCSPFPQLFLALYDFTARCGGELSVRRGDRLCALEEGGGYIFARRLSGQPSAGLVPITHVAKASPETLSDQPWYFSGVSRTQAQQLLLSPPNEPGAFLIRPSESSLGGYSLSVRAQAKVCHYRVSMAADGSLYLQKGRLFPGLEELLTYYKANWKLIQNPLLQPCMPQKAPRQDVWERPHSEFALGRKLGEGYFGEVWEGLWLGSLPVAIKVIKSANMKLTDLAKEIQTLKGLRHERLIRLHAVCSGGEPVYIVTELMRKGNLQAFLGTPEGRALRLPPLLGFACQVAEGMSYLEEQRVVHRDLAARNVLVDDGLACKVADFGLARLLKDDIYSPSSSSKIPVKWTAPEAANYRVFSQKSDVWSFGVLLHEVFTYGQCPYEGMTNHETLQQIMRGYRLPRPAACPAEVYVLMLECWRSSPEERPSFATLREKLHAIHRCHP
UniProt Q9NWZ3, sequence (whole entry, looked up): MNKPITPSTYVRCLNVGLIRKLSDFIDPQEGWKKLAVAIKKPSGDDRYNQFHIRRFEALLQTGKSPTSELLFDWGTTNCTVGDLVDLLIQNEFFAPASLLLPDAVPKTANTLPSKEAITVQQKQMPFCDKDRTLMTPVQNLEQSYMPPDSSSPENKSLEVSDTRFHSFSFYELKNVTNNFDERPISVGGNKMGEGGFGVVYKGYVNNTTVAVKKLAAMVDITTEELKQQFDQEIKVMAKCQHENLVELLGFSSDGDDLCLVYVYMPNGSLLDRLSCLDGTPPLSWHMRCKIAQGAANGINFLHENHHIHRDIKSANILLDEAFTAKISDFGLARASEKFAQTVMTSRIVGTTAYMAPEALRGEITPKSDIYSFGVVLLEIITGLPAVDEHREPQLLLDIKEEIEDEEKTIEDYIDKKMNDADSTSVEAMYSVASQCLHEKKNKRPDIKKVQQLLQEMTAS
UniProt P09769, sequence (whole entry, looked up): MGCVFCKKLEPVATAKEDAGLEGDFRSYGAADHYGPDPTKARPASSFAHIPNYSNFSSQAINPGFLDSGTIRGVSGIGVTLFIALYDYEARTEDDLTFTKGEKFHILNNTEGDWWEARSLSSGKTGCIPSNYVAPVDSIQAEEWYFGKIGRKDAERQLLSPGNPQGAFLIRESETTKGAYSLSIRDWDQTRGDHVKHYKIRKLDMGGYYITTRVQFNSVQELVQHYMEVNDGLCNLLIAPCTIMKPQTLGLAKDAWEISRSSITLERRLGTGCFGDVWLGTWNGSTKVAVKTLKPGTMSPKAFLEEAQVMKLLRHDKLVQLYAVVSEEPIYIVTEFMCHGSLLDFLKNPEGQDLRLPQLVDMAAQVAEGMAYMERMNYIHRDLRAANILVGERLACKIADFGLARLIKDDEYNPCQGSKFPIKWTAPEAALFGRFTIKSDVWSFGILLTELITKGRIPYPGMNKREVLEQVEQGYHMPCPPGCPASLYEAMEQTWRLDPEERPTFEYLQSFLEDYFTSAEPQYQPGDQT

Set 1
Target: Ephrin type-B receptor 3 (EPHB3, Homo sapiens, UniProt P54753)
UniProt P54753, sequence (whole entry, looked up): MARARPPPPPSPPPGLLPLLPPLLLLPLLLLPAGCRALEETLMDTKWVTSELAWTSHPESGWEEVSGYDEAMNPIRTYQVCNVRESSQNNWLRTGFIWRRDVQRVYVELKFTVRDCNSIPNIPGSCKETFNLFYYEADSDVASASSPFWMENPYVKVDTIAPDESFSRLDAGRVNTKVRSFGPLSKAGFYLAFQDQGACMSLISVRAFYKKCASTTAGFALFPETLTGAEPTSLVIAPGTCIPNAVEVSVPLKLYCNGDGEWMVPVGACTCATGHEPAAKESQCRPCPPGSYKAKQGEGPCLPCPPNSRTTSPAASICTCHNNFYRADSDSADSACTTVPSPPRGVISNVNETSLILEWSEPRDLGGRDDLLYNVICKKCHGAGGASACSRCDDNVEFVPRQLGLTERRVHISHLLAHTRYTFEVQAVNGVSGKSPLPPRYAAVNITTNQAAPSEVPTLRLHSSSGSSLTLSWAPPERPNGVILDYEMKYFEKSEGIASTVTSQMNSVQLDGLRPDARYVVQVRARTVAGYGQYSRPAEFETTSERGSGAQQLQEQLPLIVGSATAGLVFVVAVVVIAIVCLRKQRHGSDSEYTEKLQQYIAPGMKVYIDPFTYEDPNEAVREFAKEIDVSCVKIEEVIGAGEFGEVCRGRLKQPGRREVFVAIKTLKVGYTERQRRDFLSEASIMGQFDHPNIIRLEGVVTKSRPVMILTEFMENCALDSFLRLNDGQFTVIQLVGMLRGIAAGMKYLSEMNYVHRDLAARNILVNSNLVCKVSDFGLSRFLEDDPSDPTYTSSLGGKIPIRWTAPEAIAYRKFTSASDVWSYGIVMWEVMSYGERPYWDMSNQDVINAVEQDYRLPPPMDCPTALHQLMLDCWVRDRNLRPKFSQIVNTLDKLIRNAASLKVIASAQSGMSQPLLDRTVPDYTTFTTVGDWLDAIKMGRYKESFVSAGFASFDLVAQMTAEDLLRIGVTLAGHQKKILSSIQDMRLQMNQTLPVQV
Effect on: enzyme activity
Action: inhibitor
Concentration: 0.5 µM
Baseline: control
The remaining activity of Cc1cn(-c2cc(NC(=O)c3ccc(C)c(Nc4nccc(-c5cccnc5)n4)c3)cc(C(F)(F)F)c2)cn1 is reported as 5.59%.
The remaining activity of CCN(CC)CCNC(=O)c1c(C)[nH]c(/C=C2\C(=O)Nc3ccc(Cl)cc32)c1C is reported as 100%.
O=C1C(Cl)=C(N2C(=O)CCC2=O)C(=O)c2ccccc21 has a remaining activity of 97%.
With O=c1cc(-c2cccc3c2Sc2ccccc2S3)oc(N2CCOCC2)c1 the remaining activity was 105%.
C[C@@H]1CCN(C(=O)CC#N)C[C@@H]1N(C)c1ncnc2[nH]ccc12 gave a remaining activity of 54.9%.
The remaining activity of O=C(Nc1cccc(Nc2nccc(Nc3cccc(C(F)(F)F)c3)n2)c1)C1CC1 is reported as 100%.
The remaining activity of CCN(CC)C(=O)c1ccc(Nc2nc(OCC3CCCCC3)c3[nH]cnc3n2)cc1 is reported as 99.5%.
For CCOc1nc(NC(=O)Cc2cc(OC)ccc2OC)cc(N)c1C#N, the remaining activity was 95.9%.
Nc1cccc(-c2cc3c(Oc4cccc(O)c4)ncnc3[nH]2)c1 gave a remaining activity of 78.8%.
For O=C1c2ccccc2-c2n[nH]c3cccc1c23, the remaining activity was 92.5%.
For Cc1cc2ncc(-c3ccccc3)nc2cc1C, the remaining activity was 98.4%.
CN(C)C[C@H]1CCn2c(c(C3=C(c4cn(C)c5ccccc45)C(=O)NC3=O)c3ccccc32)C1 has a remaining activity of 105%.
The remaining activity of Ic1cccc(CSc2nnc(-c3ccncc3)o2)c1 is reported as 99.7%.
N#Cc1c(NC(=O)c2cccc3ccccc23)sc2c1CCCC2 has a remaining activity of 95.9%.
For COc1cc2c(cc1OC)-c1[nH]nc(Nc3cccc(F)c3)c1C2, the remaining activity was 97.2%.
The remaining activity of COc1cc2ncnc(Nc3cccc(Cl)c3)c2cc1OC is reported as 99.1%.
Cn1nc2c3c(cccc31)C(=O)c1ccccc1-2 has a remaining activity of 85.5%.
With Cc1nc2cc3nc(-c4cccs4)cnc3cc2n1C the remaining activity was 101%.
With c1ccc(-c2[nH]ncc2-c2ccnc3ccccc23)nc1 the remaining activity was 97.1%.
The remaining activity of COc1cc2ncnc(Nc3ccc(O)c(Br)c3)c2cc1OC is reported as 88.1%.
CN([C@@H](Cc1ccc(OS(=O)(=O)c2cccc3cnccc23)cc1)C(=O)N1CCN(c2ccccc2)CC1)S(=O)(=O)c1cccc2cnccc12 gave a remaining activity of 97%.
The remaining activity of c1ccc(-c2cnc(Nc3ccc(OCCN4CCCC4)cc3)s2)cc1 is reported as 93.3%.
The remaining activity of N#C/C(=C\c1ccc(O)c(O)c1)C(=O)NCc1ccccc1 is reported as 101%.
CCN(CC)CCNC(=O)c1c(C)[nH]c(/C=C2\C(=O)Nc3ccc(F)cc32)c1C has a remaining activity of 77.4%.

Set 2
Organism: Sarcocystis neurona
Effect on: parasite growth
Concentration: 10 µM
With Cc1nccn1CC1CCc2c(c3ccccc3n2C)C1=O (stereo not drawn) the inhibition was -28.5%.
With CC1(C)S[C@@H]2[C@H](/N=C/N3CCCCCC3)C(=O)N2[C@H]1C(=O)O the inhibition was -20.2%.
With CO/N=C(\C(=O)N[C@@H]1C(=O)N2C(C(=O)O)=C(COC(N)=O)CS[C@H]12)c1ccco1 the inhibition was -19.6%.
For OC(c1cc(C(F)(F)F)nc2c(C(F)(F)F)cccc12)C1CCCCN1 (stereo not drawn), the inhibition was 13.8%.
Oc1c(Cl)cc(Cl)c2cccnc12 has an inhibition of 96.3%.
For CC(C)(C(=O)c1cccnc1)c1cccnc1, the inhibition was -31.3%.
C[C@H]1O[C@H](O[C@H]2[C@H](O)[C@@H](O)[C@@H](O[C@H]3[C@H](O)[C@@H](O)C(O)O[C@@H]3CO)O[C@@H]2CO)[C@H](O)[C@@H](O)[C@@H]1N[C@H]1C=C(CO)[C@@H](O)[C@H](O)[C@H]1O (stereo partly drawn) gave an inhibition of -25.3%.
O=c1[nH]cc(F)c(=O)[nH]1 gave an inhibition of 75.6%.
With CCCN1CCCC[C@H]1C(=O)Nc1c(C)cccc1C the inhibition was -21.1%.
With CC(C)(C(=O)O)c1ccc(C(O)CCCN2CCC(C(O)(c3ccccc3)c3ccccc3)CC2)cc1 (stereo not drawn) the inhibition was -28.6%.
C[C@]12CC[C@@H]3c4ccc(O)cc4CC[C@H]3[C@@H]1CC[C@@H]2O has an inhibition of -44.2%.
CC(=O)[C@]1(O)Cc2c(O)c3c(c(O)c2[C@@H](O[C@H]2C[C@H](N)[C@H](O)[C@H](C)O2)C1)C(=O)c1ccccc1C3=O gave an inhibition of 98.1%.

Set 3
Species: human
Matrix: microsomes or S9
Concentration: 2 µM
Time: 0.5 h
Cc1c(Br)cc(C(=O)N(C)Cc2cscn2)c(=O)n1C gave a remaining compound of 24.4%.
For C(=C\c1ccc2ccnc(N3CCOCC3)c2c1)/c1ccncc1, the remaining compound was 28.8%.
CC1CCCC(C)N1C(=O)Cn1cnc2cc3c(cc21)OCCO3 (stereo not drawn) gave a remaining compound of 58.8%.
For CNC(=O)Nc1cc(S(=O)(=O)C(C)C(=O)O)c(Cl)cc1F (stereo not drawn), the remaining compound was > 99%.
The remaining compound of COc1cc2c(Nc3ccc(Br)cc3F)ncnc2cc1O is reported as 79.8%.
For CC(C)CCC1CCN(C(=O)C2CC(O)CN2)CC1 (stereo not drawn), the remaining compound was 107%.
The remaining compound of COc1ccc(C2=NN(c3nc4ccccc4s3)C(=O)C2)cc1 is reported as 26.9%.
For CC(c1ccc(F)cc1)N(C)C(=O)c1ccc(-c2ccncc2)[nH]c1=O (stereo not drawn), the remaining compound was 86.9%.
The remaining compound of Cc1c(C#N)c2ccccc2n1Cc1nc(Cc2ccccc2)n[nH]1 is reported as 65.9%.
With CCc1c(C(=O)c2cc(F)cc(F)c2)n(C/C=C/c2ccccc2)c(=O)[nH]c1=O the remaining compound was 42.6%.
The remaining compound of COC(=O)CN(c1ccccc1OC)S(C)(=O)=O is reported as 13.5%.
The remaining compound of N#Cc1c(N)c(-c2ccccc2)c(F)c2ccccc12 is reported as 16.1%.

Set 4
Compound: O=C(NCc1ncc(C(F)(F)F)cc1Cl)c1ccc2c(c1)C1(CCS(=O)(=O)CC1)[C@@H](C1CC1)N2S(=O)(=O)c1ccc(F)cc1
Effect on: cell-free assay
Technique: competition with immobilised ligand
Concentration: 1 µM
For Insulin receptor-related protein (INSRR, Homo sapiens, UniProt P14616): remaining binding read 100%.
It gave 87% for remaining binding (Mast/stem cell growth factor receptor Kit (KIT, Homo sapiens, UniProt P10721, T670I/V559D)).
For cAMP-dependent protein kinase catalytic subunit alpha (PRKACA, Homo sapiens, UniProt P17612): remaining binding read 98%.
For Tyrosine-protein kinase Fgr (FGR, Homo sapiens, UniProt P09769): remaining binding read 93%.
For Tyrosine-protein kinase ABL1, phosphorylated (ABL1, Homo sapiens, UniProt P00519, F317L): remaining binding read 78%.
Microtubule-associated serine/threonine-protein kinase 1 (MAST1, Homo sapiens, UniProt Q9Y2H9) — remaining binding: 61%.
For Interleukin-1 receptor-associated kinase 4 (IRAK4, Homo sapiens, UniProt Q9NWZ3): remaining binding read 90%.
Serine/threonine-protein kinase Nek11 (NEK11, Homo sapiens, UniProt Q8NG66) — remaining binding: 100%.
The remaining binding was 82% (Mast/stem cell growth factor receptor Kit, autoinhibited (KIT, Homo sapiens, UniProt P10721)).
It gave 100% for remaining binding (Proto-oncogene tyrosine-protein kinase receptor Ret (RET, Homo sapiens, UniProt P07949, V804L)).
Tyrosine-protein kinase Srms (SRMS, Homo sapiens, UniProt Q9H3Y6) — remaining binding: 60%.
It gave 76% for remaining binding (Mast/stem cell growth factor receptor Kit (KIT, Homo sapiens, UniProt P10721, L576P)).
It gave 90% for remaining binding (Phosphatidylinositol 4,5-bisphosphate 3-kinase catalytic subunit alpha isoform (PIK3CA, Homo sapiens, UniProt P42336, E545A)).
It gave 100% for remaining binding (Serine/threonine-protein kinase tousled-like 1 (TLK1, Homo sapiens, UniProt Q9UKI8)).
It gave 100% for remaining binding (Mitogen-activated protein kinase kinase kinase 10 (MAP3K10, Homo sapiens, UniProt Q02779)).
Epidermal growth factor receptor (EGFR, Homo sapiens, UniProt P00533) — remaining binding: 100%.
The remaining binding was 83% (Mitogen-activated protein kinase 3 (MAPK3, Homo sapiens, UniProt P27361)).
cAMP-dependent protein kinase catalytic subunit beta (PRKACB, Homo sapiens, UniProt P22694) — remaining binding: 85%.

For quick reference, copied from above (set 1):
The remaining activity of COc1cc2ncnc(Nc3cccc(Cl)c3)c2cc1OC is reported as 99.1%.
Cn1nc2c3c(cccc31)C(=O)c1ccccc1-2 has a remaining activity of 85.5%.
With Cc1nc2cc3nc(-c4cccs4)cnc3cc2n1C the remaining activity was 101%.
With c1ccc(-c2[nH]ncc2-c2ccnc3ccccc23)nc1 the remaining activity was 97.1%.
The remaining activity of COc1cc2ncnc(Nc3ccc(O)c(Br)c3)c2cc1OC is reported as 88.1%.
